# Measurements from different studies.
# Protocols differ between the studies behind these lines. Values joined by “and” are separate records of one study, mostly repeats; a detail may differ. ± marks the error that the study gave.
SMILES,target or system,test,system,setting,scale,quantity,result
CN1CCC[C@]1(C)/C=C/S(=O)(=O)NC(=O)Nc1c2c(cc3c1CCC3)CCC2,,,"human, whole blood ex vivo","25 mg single dose, 12 h, single ascending dose, together with: LPS and ATP",,IL-1β inhibition,82.1%
COc1cc2c(NC3CCN(C(C)C)CC3)cc(N3CCOCC3)nc2cc1OCCCN1CCCC1,,"TMT quantitative proteomics, item: NPTXR","5xFAD mice, hippocampus",dose not given,,normalised protein abundance,0.138 and 0.109 and 0.0955 and 0.16 and 0.134 and 0.0732 and 0.0401 and 0.0519
COC1OC(C)C(OC2OC(C)C(OS(=O)(=O)O)C(OC3OC(C)C(OC4OC(C)C(OS(=O)(=O)O)C(OC5OC(C)C(OS(=O)(=O)O)C(OS(=O)(=O)O)C5O)C4O)C(OS(=O)(=O)O)C3O)C2O)C(OS(=O)(=O)O)C1O (centres unmarked),,,human plasma,128 µg/mL,reference: control,thrombin time prolongation,0.9 fold
C=CC(=O)N1[C@H](c2ccc3c(c2)OCO3)c2[nH]c3ccccc3c2C[C@@H]1C(=O)N1CCN(C)CC1,human cyclin E1 N112C-3xFLAG:CDK2,"co-IP with TMT proteomics, item: PUF60",,"concentration not given, Q9UHX1",reference: wild type DMSO,relative co-enrichment,113%
c1ccc(-c2n[nH]cc2-c2ccnc3ccccc23)nc1,POM1 (Candida albicans),"kinase binding, MIB/MS competition",Candida albicans lysate,1 µM,reference: DMSO,log2 fold change,-0.08
COC1OC(C)C(OS(=O)(=O)O)C(OC2OC(C)C(OS(=O)(=O)O)C(OC3OC(C)C(OS(=O)(=O)O)C(OC4OC(C)C(OS(=O)(=O)O)C(OC5OC(C)C(OS(=O)(=O)O)C(OC6OC(C)C(OS(=O)(=O)O)C(OS(=O)(=O)O)C6OS(=O)(=O)O)C5OS(=O)(=O)O)C4OS(=O)(=O)O)C3OS(=O)(=O)O)C2OS(=O)(=O)O)C1OS(=O)(=O)O (centres unmarked),,,human plasma,128 µg/mL,reference: control,thrombin time prolongation,1 fold
COC1CN([C@H]2CC[C@H]([C@@]3(C)Oc4c(Cl)cc(C(=O)NCc5c(SC)cc(C)[nH]c5=O)c(C)c4O3)CC2)C1,,"RNA-seq, item: KAZN","human, whole blood","dose not given, 24 h",reference: pretreatment baseline,log2 fold change,2.53
COC1OC(C)C(OC2OC(C)C(O)C(OC3OC(C)C(OC4OC(C)C(O)C(OC5OC(C)C(OC6OC(C)C(O)C(OC7OC(C)C(OC8OC(C)C(O)C(OC9OC(C)C(OC%10OC(C)C(O)C(OS(=O)(=O)O)C%10OS(=O)(=O)O)C(OS(=O)(=O)O)C9OS(=O)(=O)O)C8OS(=O)(=O)O)C(OS(=O)(=O)O)C7OS(=O)(=O)O)C6OS(=O)(=O)O)C(OS(=O)(=O)O)C5OS(=O)(=O)O)C4OS(=O)(=O)O)C(OS(=O)(=O)O)C3OS(=O)(=O)O)C2OS(=O)(=O)O)C(OS(=O)(=O)O)C1OS(=O)(=O)O (centres unmarked),,,human plasma,128 µg/mL,reference: control,thrombin time prolongation,1 fold
Nc1ncc(-c2cc(-c3cnn(CC(F)(F)F)c3)ncc2F)nc1C(=O)NC1CNCC(F)C1 (centres unmarked),DDR2,KINOMEscan,,1 µM,reference: DMSO control,remaining binding,100%
COC1OC(C)C(OC2OC(C)C(OS(=O)(=O)O)C(OC3OC(C)C(OC4OC(C)C(OS(=O)(=O)O)C(OS(=O)(=O)O)C4O)C(OS(=O)(=O)O)C3O)C2O)C(OS(=O)(=O)O)C1O (centres unmarked),,,human plasma,128 µg/mL,reference: control,thrombin time prolongation,0.9 fold
Cn1ncc2cc(-c3cncc(Cl)c3N3CCC4(CCNC4=O)CC3)ccc21,LS174T,"gene expression, microarray, item: ANKRD37 mRNA",,"concentration not given, 24 h",reference: untreated cells,log2 fold change,2.02
C=CC(=O)Nc1cccc(Cn2ncc3cnc(Nc4cnn(CCOC)c4)nc32)c1,NLK human,"binding, KINOMEscan",,100 nM,lower = stronger binding,percent of control,100%
COC1OC(C)C(OS(=O)(=O)O)C(OC2OC(C)C(OS(=O)(=O)O)C(OC3OC(C)C(OS(=O)(=O)O)C(OC4OC(C)C(OS(=O)(=O)O)C(OC5OC(C)C(OS(=O)(=O)O)C(OS(=O)(=O)O)C5OS(=O)(=O)O)C4OS(=O)(=O)O)C3OS(=O)(=O)O)C2OS(=O)(=O)O)C1OS(=O)(=O)O (centres unmarked),,,human plasma,128 µg/mL,,thrombin time,10.1 ± 1.5 s
CN1CCCNC(=O)c2cccc(c2)C(=O)NCCCN(C)CCCNc2cccc3c2C(=O)c2cccc(c2C3=O)NCCC1,SAS,"RNA-Seq, item: PBLD mRNA",,"1 µM, 6 h",reference: untreated cells,log2 fold change,2.35
CC(C)c1ccc(N(C)c2ccc3c(c2)OCC[C@H]3CNc2cnccc2C(=O)O)cc1,KYSE-150,"cell growth or viability, ATP luminescence",,7 days,,IC50,5.1 nM
C=C(NC(=O)c1csc(-c2nc3c(cc2O)-c2nc(cs2)C(=O)NC(C(C)O)C(=O)NC(=C(C)OC)c2nc(cs2)C(=O)NC2c4nc(cs4)C(=O)NC(COC(=O)c4c5c6c(cccc6n4O)COC(=O)C(OC4CC(C)(O)C(N(C)C)C(C)O4)C2OC5)c2nc-3cs2)n1)C(N)=O (centres unmarked),Enterococcus faecalis,microbial growth,,clinical isolate,,MIC90,0.0312 µg/mL
CNS(=O)(=O)Nc1nccc(Cc2c(C)c3ccc(Oc4ncccc4F)cc3oc2=O)c1F,Hs746T,cell viability,,7 days,,IC50,56.8 nM
CCN(CC)CC(=O)Nc1cccc(-n2cc(-c3ccc4ccc(-c5cn(-c6cccc(NC(=O)CN(CC)CC)c6)nn5)cc4c3)nn2)c1,RCC4,"PCR angiogenesis array, item: BAI1",,"5 x IC50, 6 h, normoxia",reference: untreated,fold regulation,-1.04
Cc1ncsc1-c1ccc(C(C)NC(=O)C2CC(O)CN2C(=O)C(NC(=O)CCCCCCCCCCN2CCCC(Nc3ncc(Cl)c(Nc4ccccc4S(=O)(=O)C(C)C)n3)C2)C(C)(C)C)cc1 (centres unmarked),22Rv1,"RNA-seq, item: THRB mRNA",,concentration not given,reference: DMSO,log2 fold change,-1.05
COC1OC(C)C(OC2OC(C)C(O)C(OC3OC(C)C(OC4OC(C)C(O)C(OC5OC(C)C(OC6OC(C)C(O)C(OC7OC(C)C(OC8OC(C)C(O)C(OC9OC(C)C(OC%10OC(C)C(O)C(OC%11OC(C)C(OC%12OC(C)C(O)C(OS(=O)(=O)O)C%12OS(=O)(=O)O)C(OS(=O)(=O)O)C%11OS(=O)(=O)O)C%10OS(=O)(=O)O)C(OS(=O)(=O)O)C9OS(=O)(=O)O)C8OS(=O)(=O)O)C(OS(=O)(=O)O)C7OS(=O)(=O)O)C6OS(=O)(=O)O)C(OS(=O)(=O)O)C5OS(=O)(=O)O)C4OS(=O)(=O)O)C(OS(=O)(=O)O)C3OS(=O)(=O)O)C2OS(=O)(=O)O)C(OS(=O)(=O)O)C1OS(=O)(=O)O (centres unmarked),,,human plasma,128 µg/mL,,thrombin time,10.5 ± 0.7 s
COc1cc(O)ccc1CCC(c1ccc(O)cc1)c1cc2c(c(C)c1O)OC(c1ccc(O)cc1)CC2 (mixture of isomers),,,human blood,"0.3 µM, together with: A23187",,PGE2 level,23 ± 4 pg/mL
COc1ccccc1-c1ccncc1C(=O)Nc1nnc(OCc2ccc(Cl)cc2)s1,DLD-1 BRCA2-/-,,,1 µM,,colony count,22 and 35 and 18 and 19 and 33 and 15
Cc1cccc2c1N(C(=O)n1ccnn1)CC2,Arabidopsis thaliana,,"wild type, seeds","100 µM, high ambient temperature",,germination rate,8.3% and 3.1% and 75% and 60.6% and 66.7% and 58.7%

# For quick reference, copied from above:
SMILES,target or system,test,system,setting,scale,quantity,result
Nc1ncc(-c2cc(-c3cnn(CC(F)(F)F)c3)ncc2F)nc1C(=O)NC1CNCC(F)C1 (centres unmarked),DDR2,KINOMEscan,,1 µM,reference: DMSO control,remaining binding,100%
COC1OC(C)C(OC2OC(C)C(OS(=O)(=O)O)C(OC3OC(C)C(OC4OC(C)C(OS(=O)(=O)O)C(OS(=O)(=O)O)C4O)C(OS(=O)(=O)O)C3O)C2O)C(OS(=O)(=O)O)C1O (centres unmarked),,,human plasma,128 µg/mL,reference: control,thrombin time prolongation,0.9 fold
Cn1ncc2cc(-c3cncc(Cl)c3N3CCC4(CCNC4=O)CC3)ccc21,LS174T,"gene expression, microarray, item: ANKRD37 mRNA",,"concentration not given, 24 h",reference: untreated cells,log2 fold change,2.02
C=CC(=O)Nc1cccc(Cn2ncc3cnc(Nc4cnn(CCOC)c4)nc32)c1,NLK human,"binding, KINOMEscan",,100 nM,lower = stronger binding,percent of control,100%
